# Measured values from different studies.
# Numbered parts are unrelated; each lists some results of a single study.

# Study 1
# Target: Sal-like protein 4, full length isoform A (SALL4, Homo sapiens, UniProt Q9UJQ4, residues 1-1053)
# Chain of UniProt Q9UJQ4 (whole entry, looked up): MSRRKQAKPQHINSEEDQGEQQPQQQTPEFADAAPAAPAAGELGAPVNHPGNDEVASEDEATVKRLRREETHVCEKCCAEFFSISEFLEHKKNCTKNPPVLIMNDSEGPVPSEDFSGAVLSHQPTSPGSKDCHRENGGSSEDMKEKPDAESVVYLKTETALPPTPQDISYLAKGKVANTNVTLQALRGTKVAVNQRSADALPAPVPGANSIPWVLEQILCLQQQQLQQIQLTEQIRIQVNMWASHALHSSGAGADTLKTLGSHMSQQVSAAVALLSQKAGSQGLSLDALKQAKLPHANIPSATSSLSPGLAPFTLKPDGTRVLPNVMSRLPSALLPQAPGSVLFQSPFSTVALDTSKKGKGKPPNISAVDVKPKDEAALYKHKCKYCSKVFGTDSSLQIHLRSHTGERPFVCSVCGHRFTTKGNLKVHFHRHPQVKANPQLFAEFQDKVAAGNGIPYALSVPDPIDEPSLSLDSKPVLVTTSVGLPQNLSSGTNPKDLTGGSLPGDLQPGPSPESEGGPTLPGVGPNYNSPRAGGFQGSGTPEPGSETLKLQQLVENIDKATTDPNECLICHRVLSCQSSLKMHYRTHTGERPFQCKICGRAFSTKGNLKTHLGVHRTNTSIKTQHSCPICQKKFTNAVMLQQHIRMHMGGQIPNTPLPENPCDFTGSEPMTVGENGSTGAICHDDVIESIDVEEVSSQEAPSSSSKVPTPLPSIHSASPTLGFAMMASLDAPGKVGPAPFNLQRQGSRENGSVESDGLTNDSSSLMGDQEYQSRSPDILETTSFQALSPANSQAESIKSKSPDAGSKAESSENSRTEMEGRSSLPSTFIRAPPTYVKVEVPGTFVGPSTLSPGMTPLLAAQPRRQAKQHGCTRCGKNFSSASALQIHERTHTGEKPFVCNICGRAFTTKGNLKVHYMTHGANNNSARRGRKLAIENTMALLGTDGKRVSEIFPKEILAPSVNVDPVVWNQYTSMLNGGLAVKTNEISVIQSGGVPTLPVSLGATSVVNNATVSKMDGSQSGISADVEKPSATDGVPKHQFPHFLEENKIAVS
# Method: universal PBM
# Form: double-stranded DNA, one strand shown
# Medium: in vitro
# Concentration: 600 nM
# Setting: 8-mer, flanks averaged, mean of replicates
# Reading: higher = stronger binding
Sequence,E-score
CACCTGGC,-0.273
ATTTTCAA,0.311
CCTCTGGC,-0.077
ATTGATGG,0.242
AATCGAGG,-0.114
ACCCATAC,0.0819

# Study 2
# Target: Interferon regulatory factor 5, full length, phosphomimetic (IRF5, Homo sapiens, UniProt Q13568-2, residues 1-514, S451D/S453D/S456D/S462D)
# Method: protein-binding microarray
# Form: double-stranded DNA, one strand shown
# Medium: in vitro
# Concentration: 940 nM top
# Setting: 60-bp whole probe
# Added: salmon DNA 0.4 mg/ml
# Relative to: random background probes
# Reading: higher = stronger binding
# All sequences stand within: GCCTAGCAC … GTGCTAGGTCTTGATTCGCTTGACGCTGCTG
Sequence,fitted relative affinity
TCAGATCTCAGACTGTGACT,-0.293 z-score
CTCTGCTTGCGTCTGGGTGT,-0.588 z-score
GACGGTCTCCTTATCCTGAT,0.414 z-score
AACGAACTGAGTTTCGAGAC,3.25 z-score
GACGATCTCGGTCTCGAGAC,1.46 z-score
TCATGTTTGTGTGTGTAACT,0.337 z-score
ATCCATTTTGGTTTTCATTA,1.3 z-score

# Study 3
# Target: Histone acetyltransferase KAT6A, both winged helices, GST fusion (KAT6A, Homo sapiens, UniProt Q92794, residues 1-181)
# Method: protein binding microarray
# Form: double-stranded DNA, one strand shown
# Medium: in vitro
# Concentration: not given
# Setting: 8-mer, flanks averaged, mean of 2 arrays, mostly near background
# Relative to: not given
# Reading: higher = stronger binding
# Construct (chain): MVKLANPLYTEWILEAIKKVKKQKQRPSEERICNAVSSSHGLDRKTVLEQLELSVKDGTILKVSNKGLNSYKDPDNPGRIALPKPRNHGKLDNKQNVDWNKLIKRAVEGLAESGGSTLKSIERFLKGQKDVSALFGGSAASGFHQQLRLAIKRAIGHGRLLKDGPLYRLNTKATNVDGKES
Sequence,E-score
AAGAGAAC,-0.061
GCCGGTGA,0.157
CTCAGGAG,-0.195
CGATCCAG,-0.132

# Further values, each from its own experiment
Molecule,target,assay,test system,conditions,scale,quantity,result
"PhoQ, residues 284 288 289 292 302 303 SNGLAW","PhoP, residues 12 14 15 18 19 AWHSL (Escherichia coli, UniProt P23836)","Sort-seq, item: YFP reporter",E. coli,"PhoQ-PhoP variant library, added: 10 µM Mg2+","relative to: high Mg2+ state, higher = stronger signaling",fold induction,4.91
